Measurements pooled from the literature.
A part holds a random share of what one study measured. “And” joins repeats or separate records; there may be more than shown.
UniProt P49137, sequence (whole entry, looked up): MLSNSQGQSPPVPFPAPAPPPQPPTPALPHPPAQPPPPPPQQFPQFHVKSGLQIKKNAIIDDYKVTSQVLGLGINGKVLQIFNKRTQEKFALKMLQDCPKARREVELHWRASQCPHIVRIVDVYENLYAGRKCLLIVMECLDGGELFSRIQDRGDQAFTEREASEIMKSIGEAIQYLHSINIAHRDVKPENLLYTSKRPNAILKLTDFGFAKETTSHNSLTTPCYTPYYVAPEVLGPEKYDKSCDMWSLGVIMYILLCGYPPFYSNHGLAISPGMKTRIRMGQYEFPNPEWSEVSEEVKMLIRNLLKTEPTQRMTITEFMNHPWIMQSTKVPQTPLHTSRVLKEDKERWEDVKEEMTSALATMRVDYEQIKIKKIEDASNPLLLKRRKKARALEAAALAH
UniProt Q8WTQ7, sequence (whole entry, looked up): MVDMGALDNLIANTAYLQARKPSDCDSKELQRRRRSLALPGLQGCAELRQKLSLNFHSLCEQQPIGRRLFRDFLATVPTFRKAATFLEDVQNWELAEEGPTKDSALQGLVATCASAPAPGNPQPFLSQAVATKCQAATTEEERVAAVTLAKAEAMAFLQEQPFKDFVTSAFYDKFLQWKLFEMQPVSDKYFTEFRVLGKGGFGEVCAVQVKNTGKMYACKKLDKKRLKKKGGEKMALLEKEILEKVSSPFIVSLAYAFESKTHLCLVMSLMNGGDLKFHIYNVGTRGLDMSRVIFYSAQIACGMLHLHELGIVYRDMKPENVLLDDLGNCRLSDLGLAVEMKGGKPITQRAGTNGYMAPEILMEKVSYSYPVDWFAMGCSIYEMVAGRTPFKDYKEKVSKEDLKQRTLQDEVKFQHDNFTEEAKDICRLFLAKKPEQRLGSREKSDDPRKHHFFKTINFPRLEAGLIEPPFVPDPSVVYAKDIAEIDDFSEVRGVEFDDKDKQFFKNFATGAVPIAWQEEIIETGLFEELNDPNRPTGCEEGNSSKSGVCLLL
UniProt Q9HC98, sequence (whole entry, looked up): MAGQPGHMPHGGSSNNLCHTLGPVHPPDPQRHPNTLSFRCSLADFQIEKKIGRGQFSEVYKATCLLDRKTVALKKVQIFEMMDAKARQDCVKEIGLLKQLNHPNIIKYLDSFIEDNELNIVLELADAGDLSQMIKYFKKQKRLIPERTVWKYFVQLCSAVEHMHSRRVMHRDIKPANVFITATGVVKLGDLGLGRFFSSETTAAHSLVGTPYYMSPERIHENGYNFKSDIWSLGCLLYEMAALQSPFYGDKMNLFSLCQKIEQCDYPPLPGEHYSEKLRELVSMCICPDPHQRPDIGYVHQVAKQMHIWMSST
UniProt O00750, sequence (whole entry, looked up): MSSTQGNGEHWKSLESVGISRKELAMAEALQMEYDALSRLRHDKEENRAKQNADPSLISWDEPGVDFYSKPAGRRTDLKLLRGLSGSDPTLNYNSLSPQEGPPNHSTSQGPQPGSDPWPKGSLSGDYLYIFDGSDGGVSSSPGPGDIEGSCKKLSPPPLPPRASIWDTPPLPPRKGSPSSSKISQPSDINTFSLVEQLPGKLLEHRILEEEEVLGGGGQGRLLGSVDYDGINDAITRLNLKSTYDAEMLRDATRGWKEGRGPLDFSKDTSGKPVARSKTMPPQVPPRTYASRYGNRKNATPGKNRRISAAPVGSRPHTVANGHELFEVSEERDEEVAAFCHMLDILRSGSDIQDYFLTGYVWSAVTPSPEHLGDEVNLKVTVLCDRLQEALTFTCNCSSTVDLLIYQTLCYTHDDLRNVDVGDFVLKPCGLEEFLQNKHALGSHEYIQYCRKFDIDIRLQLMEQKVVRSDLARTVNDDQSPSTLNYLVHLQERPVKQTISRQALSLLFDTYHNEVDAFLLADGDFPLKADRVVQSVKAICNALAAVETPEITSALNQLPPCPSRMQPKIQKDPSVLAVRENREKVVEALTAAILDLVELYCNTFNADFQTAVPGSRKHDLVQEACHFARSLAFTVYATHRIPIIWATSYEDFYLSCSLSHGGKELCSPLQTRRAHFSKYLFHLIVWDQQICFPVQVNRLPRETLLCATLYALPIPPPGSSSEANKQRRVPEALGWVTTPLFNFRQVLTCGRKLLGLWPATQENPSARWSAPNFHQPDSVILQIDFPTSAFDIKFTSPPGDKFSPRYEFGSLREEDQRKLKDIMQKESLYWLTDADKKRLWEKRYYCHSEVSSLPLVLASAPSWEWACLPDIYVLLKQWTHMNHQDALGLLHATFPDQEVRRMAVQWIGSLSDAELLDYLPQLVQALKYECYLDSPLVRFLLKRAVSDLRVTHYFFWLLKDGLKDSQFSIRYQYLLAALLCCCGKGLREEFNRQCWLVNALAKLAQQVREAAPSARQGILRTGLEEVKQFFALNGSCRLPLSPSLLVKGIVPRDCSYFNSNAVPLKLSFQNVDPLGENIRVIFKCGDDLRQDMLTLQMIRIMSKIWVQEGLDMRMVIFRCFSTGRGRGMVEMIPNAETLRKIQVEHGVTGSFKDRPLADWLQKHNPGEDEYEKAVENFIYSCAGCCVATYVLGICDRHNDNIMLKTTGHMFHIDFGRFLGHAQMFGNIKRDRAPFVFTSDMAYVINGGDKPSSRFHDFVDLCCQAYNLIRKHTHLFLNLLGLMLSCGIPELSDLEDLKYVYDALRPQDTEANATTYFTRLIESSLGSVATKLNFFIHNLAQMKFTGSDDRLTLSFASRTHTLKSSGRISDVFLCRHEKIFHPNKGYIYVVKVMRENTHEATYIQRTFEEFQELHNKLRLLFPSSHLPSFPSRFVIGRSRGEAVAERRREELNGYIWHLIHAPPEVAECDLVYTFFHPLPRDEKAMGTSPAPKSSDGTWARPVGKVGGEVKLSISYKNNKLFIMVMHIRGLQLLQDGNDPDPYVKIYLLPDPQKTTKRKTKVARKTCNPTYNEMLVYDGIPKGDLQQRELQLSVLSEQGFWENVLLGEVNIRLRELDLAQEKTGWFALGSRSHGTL
UniProt P04049, sequence (whole entry, looked up): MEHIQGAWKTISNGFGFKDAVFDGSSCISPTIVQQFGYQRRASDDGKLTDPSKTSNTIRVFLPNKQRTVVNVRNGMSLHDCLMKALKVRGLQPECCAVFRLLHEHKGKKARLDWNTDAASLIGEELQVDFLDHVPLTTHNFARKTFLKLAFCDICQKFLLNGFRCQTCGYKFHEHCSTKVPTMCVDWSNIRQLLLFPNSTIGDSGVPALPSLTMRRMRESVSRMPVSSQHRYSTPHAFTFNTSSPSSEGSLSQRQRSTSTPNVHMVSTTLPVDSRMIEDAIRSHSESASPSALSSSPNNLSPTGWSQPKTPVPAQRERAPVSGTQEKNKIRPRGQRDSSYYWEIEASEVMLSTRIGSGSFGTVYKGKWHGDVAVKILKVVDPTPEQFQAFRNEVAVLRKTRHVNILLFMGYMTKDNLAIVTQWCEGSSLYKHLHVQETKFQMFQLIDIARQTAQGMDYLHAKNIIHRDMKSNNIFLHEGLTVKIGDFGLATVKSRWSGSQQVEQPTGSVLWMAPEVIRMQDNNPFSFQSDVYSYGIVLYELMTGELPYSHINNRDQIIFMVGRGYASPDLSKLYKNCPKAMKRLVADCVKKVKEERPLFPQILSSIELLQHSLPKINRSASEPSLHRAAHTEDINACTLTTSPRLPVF
UniProt P78368, sequence (whole entry, looked up): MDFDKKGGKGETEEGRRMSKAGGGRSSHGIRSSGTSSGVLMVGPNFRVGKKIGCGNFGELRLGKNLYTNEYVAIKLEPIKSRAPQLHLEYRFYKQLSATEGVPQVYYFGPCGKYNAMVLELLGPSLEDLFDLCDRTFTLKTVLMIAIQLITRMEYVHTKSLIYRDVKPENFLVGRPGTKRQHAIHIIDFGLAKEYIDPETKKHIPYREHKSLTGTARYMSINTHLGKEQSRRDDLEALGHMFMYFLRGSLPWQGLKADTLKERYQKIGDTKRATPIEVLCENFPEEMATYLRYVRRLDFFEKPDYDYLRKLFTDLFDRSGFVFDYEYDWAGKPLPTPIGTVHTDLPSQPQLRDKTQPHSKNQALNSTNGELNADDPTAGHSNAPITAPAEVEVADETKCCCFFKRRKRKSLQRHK
UniProt Q13043, sequence (whole entry, looked up): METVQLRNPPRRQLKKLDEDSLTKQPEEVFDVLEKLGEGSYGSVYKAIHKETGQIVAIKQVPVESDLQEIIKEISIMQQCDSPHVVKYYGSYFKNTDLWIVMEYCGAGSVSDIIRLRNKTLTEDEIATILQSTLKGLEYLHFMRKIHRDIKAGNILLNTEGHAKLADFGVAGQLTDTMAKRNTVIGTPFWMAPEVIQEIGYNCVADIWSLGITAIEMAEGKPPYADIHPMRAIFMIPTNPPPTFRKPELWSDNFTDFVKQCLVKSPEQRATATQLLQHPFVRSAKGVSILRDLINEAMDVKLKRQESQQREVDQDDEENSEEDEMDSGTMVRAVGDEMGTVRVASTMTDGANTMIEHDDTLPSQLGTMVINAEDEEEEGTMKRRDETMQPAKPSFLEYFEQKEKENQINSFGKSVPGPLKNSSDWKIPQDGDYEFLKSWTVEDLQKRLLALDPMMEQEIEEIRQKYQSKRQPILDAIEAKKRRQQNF

Series 1
Cell line: mouse MPNST tumor cells
Technique: high-content immunofluorescence imaging
Measured: nuclear SOX9
Concentration: 10 µM
Time: 12 h
Notes: mean of 2 replicates
Relative to: DMSO control
Reading: higher = more nuclear SOX9
SMILES | nuclear SOX9 intensity
CN(C)C(=O)COC(=O)Cc1ccc(OC(=O)c2ccc(NC(=N)N)cc2)cc1 | 99 % of DMSO
O=C(CCCCCCC(=O)Nc1ccccc1)NO | 125 % of DMSO and 154 % of DMSO and 135 % of DMSO
CC(C)NCC(O)COc1ccc(CC(N)=O)cc1 (centres unmarked) | 89.9 % of DMSO
COc1cccc(CCc2ccccc2OCC(CN(C)C)OC(=O)CCC(=O)O)c1 (centres unmarked) | 175 % of DMSO
CN(C)CCOC(=O)C(c1ccccc1)C1(O)CCCC1 (centres unmarked) | 100 % of DMSO
C[C@H]1O[C@H](O[C@H]2[C@H](O)[C@@H](O)[C@@H](O[C@H]3[C@H](O)[C@@H](O)C(O)O[C@@H]3CO)O[C@@H]2CO)[C@H](O)[C@@H](O)[C@@H]1N[C@H]1C=C(CO)[C@@H](O)[C@H](O)[C@H]1O (some centres unmarked) | 89.7 % of DMSO and 86.1 % of DMSO and 92.7 % of DMSO
CC(C)[C@H](N)C(=O)OCCOCn1cnc2c(=O)nc(N)[nH]c21 | 97.4 % of DMSO

Series 2
SMILES: CS(=O)(=O)NCC[C@H](NC(=O)c1cncc2c1cnn2-c1ccc(F)cc1)c1ccnc(S(C)(=O)=O)c1
Read-out: cell-free assay
Technique: competition with immobilised ligand
Concentration: 1 µM
target | remaining binding
RAF1 (Homo sapiens, UniProt P04049) | 76%
Ribosomal protein S6 kinase alpha-3, N-terminal kinase domain (RPS6KA3, Homo sapiens, UniProt P51812) | 100%
Tyrosine-protein kinase ABL1, phosphorylated (ABL1, Homo sapiens, UniProt P00519, Q252H) | 100%
PIK3C2B (Homo sapiens, UniProt O00750) | 78%
NEK10 (Homo sapiens, UniProt Q6ZWH5) | 100%
STK4 (Homo sapiens, UniProt Q13043) | 100%
PIKFYVE (Homo sapiens, UniProt Q9Y2I7) | 76%
DCLK3 (Homo sapiens, UniProt Q9C098) | 93%

Series 3
Target: Calcium/calmodulin-dependent protein kinase type II subunit alpha (CAMK2A, Homo sapiens, UniProt Q9UQM7)
UniProt Q9UQM7, sequence (whole entry, looked up): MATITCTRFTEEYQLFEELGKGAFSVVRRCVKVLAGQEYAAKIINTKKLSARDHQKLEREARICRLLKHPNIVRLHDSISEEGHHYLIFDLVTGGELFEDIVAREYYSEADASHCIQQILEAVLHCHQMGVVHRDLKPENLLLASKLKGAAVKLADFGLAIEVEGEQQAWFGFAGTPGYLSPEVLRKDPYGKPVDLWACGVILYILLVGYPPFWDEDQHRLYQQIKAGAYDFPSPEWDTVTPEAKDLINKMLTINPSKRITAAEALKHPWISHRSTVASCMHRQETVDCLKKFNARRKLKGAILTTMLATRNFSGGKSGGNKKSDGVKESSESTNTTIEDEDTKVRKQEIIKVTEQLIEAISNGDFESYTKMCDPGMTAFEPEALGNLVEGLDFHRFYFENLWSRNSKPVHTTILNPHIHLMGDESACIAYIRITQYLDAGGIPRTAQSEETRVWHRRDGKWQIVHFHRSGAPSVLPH
Read-out: enzyme activity
Action: inhibitor
Concentration: 10 µM
SMILES | inhibition [%]
OCC(O)COc1ccc(Cl)cc1 (centres unmarked) | -1
C[C@H](CCC(=O)NCC(=O)O)[C@H]1CC[C@H]2[C@@H]3C(O)C[C@@H]4C[C@H](O)CC[C@]4(C)[C@H]3CC[C@]12C (some centres unmarked) | -9
O=c1ccc2nccc3c4ccccc4n1c23 | -22
COc1ccc(-c2oc3c(CC=C(C)C)c(O[C@@H]4O[C@H](CO)[C@@H](O)[C@H](O)[C@H]4O)cc(O)c3c(=O)c2O[C@@H]2O[C@@H](C)[C@H](O)[C@@H](O)[C@H]2O[C@@H]2O[C@@H](C)[C@H](O)[C@@H](O)[C@H]2O)cc1 | -26
CC[C@@]1(O)C(=O)OCc2c1cc1n(c2=O)Cc2cc3c(CN(C)C)c(O)ccc3nc2-1 | 2
CC(C)=CCc1c(O)c(CC=C(C)C)c2oc3c(O)cccc3c(=O)c2c1O | 11

Series 4
Structure (SMILES): COc1cc2ncnc(Nc3ccc(OCc4ccccc4)cc3)c2cc1OC
Read-out: enzyme activity
Action: inhibitor
Concentration: 0.5 µM
Relative to: control
target | remaining activity
GRK7 (Homo sapiens, UniProt Q8WTQ7) | 101%
CSNK1G3 (Homo sapiens, UniProt Q9Y6M4) | 92.9%
MST1R (Homo sapiens, UniProt Q04912) | 106%
ULK2 (Homo sapiens, UniProt Q8IYT8) | 97%
CSNK1G2 (Homo sapiens, UniProt P78368) | 98.4%
ACVR1B (Homo sapiens, UniProt P36896) | 102%
GSK3B (Homo sapiens, UniProt P49841) | 119%
MAPKAPK2 (Homo sapiens, UniProt P49137) | 106%
EPHA3 (Homo sapiens, UniProt P29320) | 98.1%
FGFR3 (Homo sapiens, UniProt P22607) | 102%
NEK6 (Homo sapiens, UniProt Q9HC98) | 97.6%
TBK1 (Homo sapiens, UniProt Q9UHD2) | 101%
NEK1 (Homo sapiens, UniProt Q96PY6) | 104%
MAP2K2 (Homo sapiens, UniProt P36507) | 98.5%

For quick reference, copied from above (series 4):
target | remaining activity
CSNK1G3 (Homo sapiens, UniProt Q9Y6M4) | 92.9%
MST1R (Homo sapiens, UniProt Q04912) | 106%
ULK2 (Homo sapiens, UniProt Q8IYT8) | 97%
CSNK1G2 (Homo sapiens, UniProt P78368) | 98.4%
ACVR1B (Homo sapiens, UniProt P36896) | 102%
GSK3B (Homo sapiens, UniProt P49841) | 119%
